# Published values gathered from unrelated publications.
# Compare with care: the assays were run in different laboratories.
# Cell line: NCI/ADR-RES
SMILES,test,system,setting,measurement,value
C#C[C@@]1(O)[C@@H](CO)O[C@@H](n2cc(Br)c3c(N)ncnc32)[C@@H]1O,"cell growth, SRB",,,TGI,1.02 µM
CCCCN1CCN(c2ccc3[nH]c(-c4ccc5[nH]c(-c6ccc(C(F)(F)F)cc6)nc5c4)nc3c2)CC1,"cell growth, NCI-60 SRB",,"10 µM, 48 h",growth percent,54.8%
CCN(CC)c1ccc(C=NNC(=O)CSc2nc3ccccc3c(=O)n2Cc2ccc(S(N)(=O)=O)cc2)c(O)c1,cell growth,,NCI five-dose screen,TGI,> 100 µM
O=C1NC(=NCc2cccs2)S/C1=C\c1ccc2ncccc2c1,"cytotoxicity, MTS",NCI60 panel,ovarian cancer,IC50,3.67 µM
Cn1cncc1C1=CN(c2ncnc3[nH]cnc23)CCS1,,,ovarian cancer cell line,GI50,56.2 µM
C#C[C@@]1(O)[C@@H](CO)O[C@@H](n2ccc3c(N)ncnc32)[C@@H]1O,"cell growth, SRB",,,TGI,7.28 µM
Cc1cc(C)n(C(=S)[S][Au][PH](CCCCCC[PH]([Au][S]C(=S)n2nc(C)cc2C)(c2ccccc2)c2ccccc2)(c2ccccc2)c2ccccc2)n1,"cell growth, NCI-60 screen",,breast cancer,log TGI,> -4 log10 M
CCCCN1CCN(c2ccc3nc(-c4ccc5nc(-c6cc(OC)ccc6OC)[nH]c5c4)[nH]c3c2)CC1,"cell growth, NCI-60 SRB",,"10 µM, 48 h",growth percent,105%
O=C1NCCc2[nH]c(-c3ccncc3)cc21,"cytotoxicity, MTS",NCI60 panel,ovarian cancer,IC50,1.44 µM
CCCN1CCN(c2ccc3[nH]c(-c4ccc5[nH]c(-c6ccc(C(F)(F)F)cc6)nc5c4)nc3c2)CC1,"cell growth, NCI-60 SRB",,"10 µM, 48 h",growth percent,74%
S=C([S][Au-][P+](CCCCCC[P+]([Au-][S]C(=S)n1cccn1)(c1ccccc1)c1ccccc1)(c1ccccc1)c1ccccc1)n1cccn1,"cell growth, NCI-60 screen",,breast cancer,log TGI,> -4 log10 M

# A few entries again:
SMILES,test,system,setting,measurement,value
CCN(CC)c1ccc(C=NNC(=O)CSc2nc3ccccc3c(=O)n2Cc2ccc(S(N)(=O)=O)cc2)c(O)c1,cell growth,,NCI five-dose screen,TGI,> 100 µM
